Results from different studies.
Lines come from different studies, so protocols differ. Several values in a cell are separate wells, animals, samples, runs or records. ± gives the spread as reported.

SMILES = Cc1ccc(NC(=O)c2ccc(CN3CCN(C)CC3)cc2)cc1Nc1nccc(-c2cncc(-c3oncc3C)c2)n1; system = Parkinson's disease patients, plasma; conditions = oral, 100 mg once daily, day 7, 7-day dosing, mean; Cmax = 3320 ng/mL
SMILES = CC1Cc2ccccc2N1NC(=O)c1ccc(Cl)c(S(N)(=O)=O)c1 (stereo not shown); system = healthy Chinese volunteers, whole blood; conditions = oral, 1.25 mg, fasting, added: perindopril tert-butylamine 4 mg; Cmax = 62 ± 10.8 ng/mL
SMILES = CC1=C2C[C@H]3[C@@H](CC[C@@H]4C[C@H](NS(C)(=O)=O)CC[C@@]43C)[C@@H]2CC[C@@]2(C1)O[C@@H]1C[C@H](C)CN[C@H]1[C@H]2C; system = patients, plasma; conditions = oral, 60 mg daily, day 22, cycle 1; Cmax = 105 ng/mL
SMILES = C[C@]12C=CC(=O)C=C1CC[C@@H]1[C@@H]2[C@@H](O)C[C@@]2(C)[C@H]1C[C@H]1O[C@@H](C3CCCCC3)O[C@]12C(=O)CO; system = children with asthma, serum; conditions = inhaled, 160 µg ciclesonide, day 7, geometric LS mean, per-protocol, spacer; Cmax = 0.19 ng/mL
SMILES = C[C@H]1CN(C(=O)CC#N)[C@]12CCN(c1ncnc3[nH]ccc13)C2; system = atopic dermatitis patients, plasma; conditions = topical, 5 g of 3% ointment twice daily, day 7; Cmax = 2.89 ± 1.39 ng/mL
SMILES = NCCCC[C@H](N[C@@H](CCc1ccccc1)C(=O)O)C(=O)N1CCC[C@H]1C(=O)O; system = healthy volunteers, plasma; conditions = oral, 10 mg, geometric mean, added: 200 mL water; Cmax = 42.2 ng/mL
SMILES = CO[C@H]1C[C@@H]2CC[C@@H](C)[C@@](O)(O2)C(=O)C(=O)N2CCCC[C@H]2C(=O)O[C@H]([C@H](C)C[C@@H]2CC[C@@H](OP(C)(C)=O)[C@H](OC)C2)CC(=O)[C@H](C)/C=C(\C)[C@@H](O)[C@@H](OC)C(=O)[C@H](C)C[C@H](C)/C=C/C=C/C=C/1C; assay = HPLC-MS/MS; system = Japanese patients, whole blood; conditions = oral, 40 mg, day 26, cycle 1, geometric mean; Cmax = 188 ng/mL
SMILES = CC(C)=CCC[C@](C)(O[C@@H]1O[C@H](CO)[C@@H](O)[C@H](O)[C@H]1O)[C@H]1CC[C@]2(C)[C@@H]1[C@H](O)C[C@@H]1[C@@]3(C)CC[C@H](O[C@@H]4O[C@H](CO)[C@@H](O)[C@H](O)[C@H]4O[C@@H]4O[C@H](CO)[C@@H](O)[C@H](O)[C@H]4O)C(C)(C)[C@@H]3CC[C@]12C; assay = LC-MS/MS; system = healthy female volunteers, serum; conditions = oral, 3 g red ginseng; Cmax = 2.55 ± 1.81 ng/mL
SMILES = C[C@@H](O)[C@H]1C(=O)N2C(C(=O)O)=C(S[C@@H]3CN[C@H](C(=O)N(C)C)C3)[C@H](C)[C@H]12; assay = microdialysis; system = pig (Danish Landrace), subcutaneous adipose tissue; conditions = iv infusion, 1000 mg over 10 min, added: vancomycin co-administered; Cmax = 22000 ng/mL
SMILES = Cc1ccnc2c1NC(=O)c1cccnc1N2C1CC1; system = olive baboon female, serum; conditions = oral, 400 mg, tablet; Cmax = 328 ± 13.4 ng/mL
SMILES = NC(=O)c1cnc2[nH]ccc2c1N[C@@H]1[C@@H]2CC3C[C@H]1C[C@@](O)(C3)C2; system = healthy Caucasian men, plasma; conditions = oral, 200 mg, single dose fasted; Cmax = 381 ng/mL
SMILES = O=C(CCCCCCC(=O)Nc1ccccc1)NO; system = patients, serum; conditions = oral, 800 mg, cycle 1 day 2, added: flavopiridol 30+30 mg/m2; Cmax = 6430 nM
SMILES = COc1cccc(N2CCN(C3=Nc4c(F)cccc4[C@H](CC(=O)O)N3c3cc(C(F)(F)F)ccc3OC)CC2)c1; assay = UHPLC-MS/MS; system = healthy women, plasma; conditions = intravenous infusion, 720 mg single dose, 60 min infusion, HPβCD formulation; Cmax = 39100 ± 3060 ng/mL
SMILES = Cc1ccc(Sc2ccccc2N2CCNCC2)c(C)c1; system = healthy men, plasma; conditions = oral, 20 mg once daily, fed, day 1; Cmax = 6.5 ng/mL
SMILES = CN[C@H](CC(C)C)C(=O)N[C@H]1C(=O)N[C@@H](CC(N)=O)C(=O)N[C@H]2C(=O)N[C@H]3C(=O)N[C@H](C(=O)N[C@H](C(=O)O)c4cc(O)cc(O)c4-c4cc3ccc4O)[C@H](O)c3ccc(c(Cl)c3)Oc3cc2cc(c3O[C@@H]2O[C@H](CO)[C@@H](O)[C@H](O)[C@H]2O[C@H]2C[C@](C)(N)[C@H](O)[C@H](C)O2)Oc2ccc(cc2Cl)[C@H]1O; assay = microdialysis; system = pig (Danish Landrace), cancellous bone; conditions = iv infusion, 1000 mg over 100 min, added: meropenem co-administered; Cmax = 14000 ng/mL
SMILES = CC(=O)Nc1ccc(O)cc1; system = healthy volunteers, both sexes, plasma; conditions = oral, 650 mg, day 1; Cmax = 9300 ng/mL
SMILES = CON(C)C(=O)N1N=C(c2cc(F)ccc2F)S[C@@]1(CCCN)c1ccccc1; system = patients, plasma; conditions = intravenous, dose not given, day 3, cycle 1 day 3; Cmax = 35.6 ng/mL
SMILES = CCOc1ccc2cc(-c3nn(CC4CCN(C)CC4)c4ncnc(N)c34)ccc2c1; assay = LC-MS/MS; system = Neospora caninum-infected pregnant sheep, plasma; conditions = oral, 100 mg/kg, after dose 2; Cmax = 2100 ± 700 nM
SMILES = CCCC[C@H](NC(C)=O)C(=O)N[C@H]1CCC(=O)NC[C@@H](C(=O)N[C@@H](Cc2c[nH]c3ccccc23)C(N)=O)NC(=O)[C@H](CCCNC(=N)N)NC(=O)[C@@H](Cc2ccccc2)NC(=O)[C@H](Cc2c[nH]cn2)NC1=O; system = healthy volunteers, plasma; conditions = subcutaneous, 1.0 mg once daily, day 7, steady state mean; Cmax = 20.9 ng/mL
SMILES = CC[C@H](C)CCCCC(=O)N[C@@H](CCN)C(=O)N[C@H](C(=O)N[C@@H](CCN)C(=O)N[C@H]1CCNC(=O)[C@H]([C@@H](C)O)NC(=O)[C@H](CCN)NC(=O)[C@H](CCN)NC(=O)[C@H](CC(C)C)NC(=O)[C@@H](Cc2ccccc2)NC(=O)[C@H](CCN)NC1=O)[C@@H](C)O; assay = UPLC-MS/MS; system = intensive care patients Overall, plasma; conditions = iv, dose not given, end of infusion, steady state, polymyxin B dosing; Cmax = 6300 ± 1900 ng/mL
SMILES = CC#CC(=O)N1CCC[C@H]1c1nc(-c2ccc(C(=O)Nc3ccccn3)cc2)c2c(N)nccn12; system = Japanese patients, plasma; conditions = oral, 100 mg twice daily, day 8, fasting, multiple dose, geometric mean; Cmax = 1120 ng/mL
SMILES = CN1CCN(c2ccc3nc(-c4c(N)c5c(F)cccc5[nH]c4=O)[nH]c3c2)CC1; system = patients, plasma; conditions = oral, 300 mg daily 5 days on 2 off, day 19, median, added: gemcitabine and capecitabine; Cmax = 221 ng/mL
SMILES = CS(=O)(=O)n1cc2c(n1)CN([C@H]1CO[C@H](c3cc(F)ccc3F)[C@@H](N)C1)C2; system = healthy Japanese men, plasma; conditions = oral, 25 mg once weekly, day 1; Cmax = 803 nM
SMILES = C=C(C)[C@@H]1CC[C@]2(NCCN3CCS(=O)(=O)CC3)CC[C@]3(C)[C@H](CC[C@@H]4[C@@]5(C)CC=C(C6=CC[C@@](CF)(C(=O)O)CC6)C(C)(C)[C@@H]5CC[C@]43C)[C@@H]12; system = HIV-1-positive treatment-naive adults, plasma; conditions = oral, 80 mg single dose, day 1, with food; Cmax = 430 ng/mL
SMILES = CC(C)(Sc1ccncc1-c1ccc(C#N)c2ccccc12)C(=O)O; system = healthy Japanese male subjects, plasma; conditions = oral, 15 mg single dose, day 1, fasted, geometric mean; Cmax = 32.2 ng/mL
SMILES = N[C@@H](Cc1ccc(O)c(O)c1)C(=O)O; system = rhesus and cynomolgus macaque, plasma; conditions = subcutaneous, dose not given, added: PDE9 inhibitor 5 mg/kg; Cmax = 84.9 ng/mL and 93.3 ng/mL
SMILES = CO/N=C1\C[C@]2(C[C@@H]3C[C@@H](C/C=C(\C)C[C@@H](C)/C=C/C=C4\CO[C@@H]5[C@H](O)C(C)=C[C@@H](C(=O)O3)[C@]45O)O2)O[C@H](/C(C)=C/C(C)C)[C@H]1C; system = parasitized Corriedale lambs, plasma; conditions = oral, 0.2 mg/kg, added: closantel 10 mg/kg oral; Cmax = 21.9 ± 15.8 ng/mL
SMILES = CC(C)=CCC[C@](C)(O[C@@H]1O[C@H](CO)[C@@H](O)[C@H](O)[C@H]1O)[C@H]1CC[C@]2(C)[C@@H]1[C@H](O)C[C@@H]1[C@@]3(C)CC[C@H](O[C@@H]4O[C@H](CO)[C@@H](O)[C@H](O)[C@H]4O)C(C)(C)[C@@H]3CC[C@]12C; assay = LC-MS/MS; system = healthy female volunteers, serum; conditions = oral, 3 g fermented red ginseng; Cmax = 2.01 ± 1.14 ng/mL
SMILES = COc1cc2c3c(n(CCCN4CCOCC4)c(=O)c2cc1OC)-c1cc2c(cc1C3=O)OCO2; system = patients, plasma; conditions = intravenous infusion, 20 mg/m^2 daily over 1 h, cycle 1 day 4; Cmax = 583 ng/mL
SMILES = CC(=O)c1nn(CC(=O)N2C[C@H](F)C[C@H]2C(=O)Nc2cccc(Br)n2)c2ccc(-c3cnc(C)nc3)cc12; system = Dutch Belted rabbit, plasma; conditions = oral, 15 mg/kg single dose; Cmax = 318 ng/mL
SMILES = NC(=O)c1cnc2[nH]ccc2c1N[C@@H]1[C@@H]2CC3C[C@H]1C[C@@](O)(C3)C2; system = Japanese, mild hepatic impairment, plasma; conditions = oral, 150 mg single dose, mean; Cmax = 372 ng/mL
SMILES = COc1ccc2c3c1O[C@H]1C[C@@H](OC(=O)c4ccccc4)C=C[C@@]31CCN(C)C2; system = healthy elderly men, plasma; conditions = intranasal, 44 mg, single dose; Cmax = 43.2 ng/mL
SMILES = CC(C)(Sc1ccncc1-c1ccc(C#N)c2ccccc12)C(=O)O; system = healthy men, plasma; conditions = oral, 10 mg once daily, day 14, geometric mean, added: febuxostat 40 mg; Cmax = 14.1 ng/mL
SMILES = Nc1cc(F)ccc1NC(=O)c1ccc(CNC(=O)/C=C/c2cccnc2)cc1; system = Japanese patients, plasma; conditions = oral, 30 mg twice weekly, cycle 1 day 25, arithmetic mean; Cmax = 240 ng/mL
SMILES = CC(C)C(=O)OCC(=O)[C@@]12O[C@H](C3CCCCC3)O[C@@H]1C[C@H]1[C@@H]3CCC4=CC(=O)C=C[C@]4(C)[C@H]3[C@@H](O)C[C@@]12C; system = children with asthma, serum; conditions = inhalation without spacer, 160 µg, day 7, steady state; Cmax = 0.117 ± 0.019 ng/mL
SMILES = COc1cc(OC)c(/C=C/S(=O)(=O)Cc2ccc(OC)c(NCC(=O)O)c2)c(OC)c1; system = cancer patients, phase I, plasma; conditions = oral, 560 mg twice daily, day 21 cycle 1; Cmax = 2540 ± 2350 ng/mL
SMILES = CCOc1ccc(Cc2cc([C@@H]3S[C@H](CO)[C@@H](O)[C@H](O)[C@H]3O)c(OC)cc2C)cc1; system = Japanese type 2 diabetes patients, plasma; conditions = oral, 5 mg single dose, eGFR 30-44 mL/min/1.73 m^2; Cmax = 211 ± 62.5 ng/mL
SMILES = CC/C(=C(\c1ccccc1)c1ccc(OCCN(C)C)cc1)c1ccccc1; system = female breast cancer patients, plasma; conditions = dose-normalised to 20 mg, added: weak CYP2D6-inhibiting SSRI escitalopram or citalopram; Cmax = 366 nM
SMILES = N[C@@H](CC(=O)N1CCn2c(nnc2C(F)(F)F)C1)Cc1cc(F)c(F)cc1F; system = healthy Korean subjects, plasma; conditions = oral, 100 mg single dose, ABCB1 G2677T/A GT; Cmax = 466 ± 167 ng/mL
SMILES = CCOc1cc([C@@H](CS(C)(=O)=O)N2C(=O)c3cccc(NC(C)=O)c3C2=O)ccc1O[C@@H]1O[C@H](C(=O)O)[C@@H](O)[C@H](O)[C@H]1O; system = mild renal impairment patients, plasma; conditions = oral, 30 mg of apremilast; Cmax = 225 ng/mL
SMILES = Nc1ncc(-c2cnn(CCO)c2)c2scc(-c3ccc(NC(=O)Nc4cccc(F)c4)cc3)c12; system = patient, plasma; conditions = oral, 480 mg twice weekly, day 1, trial; Cmax = 1060 ± 680 ng/mL
SMILES = CC(C)(Sc1ccncc1-c1ccc(C#N)c2ccccc12)C(=O)O; system = male, plasma; conditions = oral, 15 mg, moderate renal impairment, fasted; Cmax = 29 ng/mL
SMILES = C=C(C)[C@@H]1CC[C@]2(NCCN3CCS(=O)(=O)CC3)CC[C@]3(C)[C@H](CC[C@@H]4[C@@]5(C)CC=C(C6=CC[C@@](CF)(C(=O)O)CC6)C(C)(C)[C@@H]5CC[C@]43C)[C@@H]12; system = healthy adults, plasma; conditions = oral, 200 mg once daily, day 7, steady state, moderate-fat meal, added: dolutegravir 50 mg; Cmax = 1660 ng/mL
SMILES = Cc1cc(Nc2cc3ncccc3c(N[C@@H]3C[C@H]4CC[C@@H](C3)N4CCC#N)n2)n[nH]1; system = pregnant rabbit, maternal plasma; conditions = oral, 60 mg/kg/day, gestation day 19; Cmax = 860 ng/mL
SMILES = O=C1Nc2c(C(=O)O)ccnc2N(C2CC2)c2ncccc21; system = olive baboon (Papio anubis), non-pregnant, serum; conditions = oral, 10 mg/kg of nevirapine, solution, single dose; Cmax = 214 ± 50.6 ng/mL
SMILES = C[C@@H](N)c1cc(Cl)ccc1Cn1c(=S)[nH]c(=O)c2[nH]ccc21; system = healthy Japanese volunteers, plasma; conditions = oral, 5 mg once daily, day 1, geometric mean; Cmax = 17 nM
